Experimental data pooled from the literature.
Parts stem from different laboratories: compare values within a part only. Substitutions count along the parent as printed.

Set 1 — technique: protein-binding microarray; form: double-stranded DNA, one strand shown; sample: in vitro; tested at: 250 nM; setting: 60-bp whole probe; with: salmon DNA 0.4 mg/ml; baseline: random background probes; direction: higher = stronger binding; all sequences stand within: GCCTAGCAC … GTCTTGATTCGCTTGACGCTGCTG
Target: Interferon regulatory factor 5, full length, phosphomimetic (IRF5, Homo sapiens, UniProt Q13568-2, residues 1-514, K96S/S451D/S453D/S456D/S462D)
Strand	log fluorescence [z-score]
GACGGACTGGGTCTAGGGACGTGCTAG	-0.847
AATTAATAACTCGTAGGATCGTGCTAG	0.0118
TAAGGACTGGACTTTCGGTTAGTGCTA	9.61
TTAGATATCGGCACTGGATTAGTGCTA	1.47
TCACCTTGGCCTCTAGGACTGTGCTAG	-0.798
GACGATATCAGTCTCGAGATGTGCTAG	1.23
TCAACCATCCTGTGTCTTACTGTGCTA	0.075
TTAGCTCTCCTTCTCCTTTAGTGCTAG	-0.0239

Set 2 — technique: DHFR PCA, deep sequencing; sample: yeast; with: (+)-ABA 0.39 µM; baseline: wild-type fitted maximum; direction: higher = stronger binding
Target: ABI1, truncated, D143A, DHFR fusion (Arabidopsis thaliana)
Setting: methotrexate growth selection, single substitutions
Parent: PYL1, truncated, DHFR fusion (Arabidopsis thaliana); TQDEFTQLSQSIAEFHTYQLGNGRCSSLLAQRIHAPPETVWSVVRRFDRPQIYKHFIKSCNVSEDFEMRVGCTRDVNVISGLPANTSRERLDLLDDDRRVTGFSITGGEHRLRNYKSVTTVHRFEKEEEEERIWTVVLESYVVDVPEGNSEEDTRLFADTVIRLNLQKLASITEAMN; partner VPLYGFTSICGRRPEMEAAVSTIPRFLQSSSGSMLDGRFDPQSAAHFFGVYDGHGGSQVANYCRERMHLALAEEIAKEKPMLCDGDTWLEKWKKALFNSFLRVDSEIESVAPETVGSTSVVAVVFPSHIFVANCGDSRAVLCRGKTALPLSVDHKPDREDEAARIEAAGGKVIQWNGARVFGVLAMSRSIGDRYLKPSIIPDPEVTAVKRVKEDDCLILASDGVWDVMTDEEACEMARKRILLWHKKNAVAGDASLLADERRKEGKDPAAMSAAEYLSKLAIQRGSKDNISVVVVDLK
Variant	relative binding score
V137K	-0.693%
R49H	24.8%
I12M	6.77%
M176H	17.3%
I57V	33.5%
C25V	65.5%
E89T	-3.78%
L82M	42.3%

Further values, each from its own experiment
Substance	target or system	test	test system	setting	how to read	measurement	value
GSPAKKLFTSTGL	Saccharomyces cerevisiae	peptide binding, yeast competitive growth sequencing	peptide, cyclin-Cln2 fusion strain	concentration not given, library 1	direction not given	binding score	-0.183
PhoQ, residues 284 288 289 292 302 303 QWGLFV	PhoP, residues 12 14 15 18 19 NFCKL (Escherichia coli, UniProt P23836)	Sort-seq, measured: YFP reporter	E. coli	PhoQ-PhoP variant library, with: 10 µM Mg2+	baseline: high Mg2+ state, higher = stronger signaling	fold induction	0.786
GFGFLLFICKLTF	human cyclin A2	peptide binding, competitive growth sequencing	peptide, Saccharomyces cerevisiae, cyclin A2-Cln2 fusion strain	concentration not given, mutational scanning library 2	baseline: unfused Cln2 strain, direction not given	binding score	1.36

Some of these lines once more (set 2):
Variant	relative binding score
I57V	33.5%
V137K	-0.693%
R49H	24.8%
